Assay results gathered from unrelated publications.
A part holds a random share of what one study measured.

Set 1 — method: protein binding microarray; molecule type: double-stranded DNA, one strand shown; medium: in vitro; concentration: not given; reference: not given; direction: higher = stronger binding
Target: Histone acetyltransferase KAT6A, winged helix 2, GST fusion (KAT6A, Homo sapiens, UniProt Q92794, residues 85-181)
Notes: 8-mer, flanks averaged, mean of 2 arrays, mostly near background
Target sequence (chain): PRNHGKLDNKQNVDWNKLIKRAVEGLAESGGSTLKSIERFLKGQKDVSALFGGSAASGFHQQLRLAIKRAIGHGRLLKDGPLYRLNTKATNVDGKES
Sequence	E-score
ATACTTCC	-0.146
ACGCGAAT	0.0478
AACCTACT	-0.144
CGGGTAGA	-0.0572
AGACTGTC	-0.227
CCAGCAGG	0.0768
AATGCAAC	-0.02
CTGAAAGA	0.096
CCATCAGA	-0.117
ATCCTTTG	-0.121
CTATCCAC	-0.018
AAAATGAC	-0.0936
CGGTGGAG	-0.0148
GATATGGA	0.0534
ACTACTCC	0.0763
CCATTGAA	-0.0468
ACGCGCAC	0.0465
CAGCATGA	-0.0978

Set 2 — method: universal PBM; molecule type: double-stranded DNA, one strand shown; medium: in vitro; concentration: 600 nM; direction: higher = stronger binding
Target: Sal-like protein 4, full length isoform A (SALL4, Homo sapiens, UniProt Q9UJQ4, residues 1-1053)
Chain of UniProt Q9UJQ4 (whole entry, looked up): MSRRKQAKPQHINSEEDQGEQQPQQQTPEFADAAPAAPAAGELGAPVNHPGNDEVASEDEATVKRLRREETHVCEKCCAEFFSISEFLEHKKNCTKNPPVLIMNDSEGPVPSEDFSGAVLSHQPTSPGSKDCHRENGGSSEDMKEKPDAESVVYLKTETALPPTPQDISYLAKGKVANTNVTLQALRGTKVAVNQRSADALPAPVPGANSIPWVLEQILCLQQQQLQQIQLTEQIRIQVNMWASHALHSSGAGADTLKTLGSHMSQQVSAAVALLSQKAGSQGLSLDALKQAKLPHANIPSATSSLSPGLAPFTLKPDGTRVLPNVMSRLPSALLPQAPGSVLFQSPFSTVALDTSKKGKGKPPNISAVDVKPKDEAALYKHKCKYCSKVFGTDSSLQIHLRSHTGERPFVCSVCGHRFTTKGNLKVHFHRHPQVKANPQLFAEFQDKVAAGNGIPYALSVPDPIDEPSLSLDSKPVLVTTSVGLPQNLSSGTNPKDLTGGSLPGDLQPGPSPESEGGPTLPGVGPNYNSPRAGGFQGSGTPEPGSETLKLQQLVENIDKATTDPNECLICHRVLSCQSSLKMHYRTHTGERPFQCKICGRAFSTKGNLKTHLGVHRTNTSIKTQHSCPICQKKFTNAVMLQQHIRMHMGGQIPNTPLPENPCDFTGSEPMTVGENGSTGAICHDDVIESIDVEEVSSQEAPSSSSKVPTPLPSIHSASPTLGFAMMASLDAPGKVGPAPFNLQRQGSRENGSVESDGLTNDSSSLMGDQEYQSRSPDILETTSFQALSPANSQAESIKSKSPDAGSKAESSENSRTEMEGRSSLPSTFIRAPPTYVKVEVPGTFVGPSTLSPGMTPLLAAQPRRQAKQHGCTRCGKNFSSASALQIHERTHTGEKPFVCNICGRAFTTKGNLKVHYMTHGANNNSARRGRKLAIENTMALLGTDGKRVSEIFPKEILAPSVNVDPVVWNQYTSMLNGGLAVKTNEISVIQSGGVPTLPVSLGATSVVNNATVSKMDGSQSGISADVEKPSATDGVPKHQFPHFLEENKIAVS
Notes: 8-mer, flanks averaged, mean of replicates
Sequence	E-score
CACATCGA	0.0284
AAAACGTG	0.144
GTTATCAA	0.195
AACGACCT	-0.0816
ATCGTTTC	0.1
GTCTCAAC	-0.00594
ACCATTAT	0.0792
ATCTGCAA	0.03
CAATAGAC	0.191
ATTTGATG	0.221
ATCAGAAT	0.139
AATACCAC	0.142
ATATTTAG	0.391
TAATGATA	0.378
GTCTAGAC	-0.274
AGTAGACA	0.0428
GCACCTCA	-0.2
CTTGCTTA	0.0514

Set 3 — method: RNA Bind-n-Seq; molecule type: RNA; medium: in vitro; concentration: not given; reference: input RNA pool; direction: higher = stronger binding
Target: RING finger protein unkempt homolog, zinc fingers 1-6, GST-SBP tag (UNK, Homo sapiens, UniProt Q9C0B0, residues 30-357)
Chain of UniProt Q9C0B0 (30-357, looked up): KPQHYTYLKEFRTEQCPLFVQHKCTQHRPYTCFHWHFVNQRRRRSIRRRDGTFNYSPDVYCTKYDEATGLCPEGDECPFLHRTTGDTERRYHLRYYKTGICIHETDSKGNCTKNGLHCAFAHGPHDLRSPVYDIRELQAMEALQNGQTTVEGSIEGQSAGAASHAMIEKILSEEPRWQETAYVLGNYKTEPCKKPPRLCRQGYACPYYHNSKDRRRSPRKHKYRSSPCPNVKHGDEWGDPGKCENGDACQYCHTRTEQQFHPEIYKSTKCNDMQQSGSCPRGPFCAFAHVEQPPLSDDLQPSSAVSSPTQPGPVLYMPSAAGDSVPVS
Notes: RNA with constant flanks, human and mouse sites, ends assumed
All sequences stand within: GGGAGUUCUACAGUCCGACGAUC … CAACAGAGGAUUGAGCAUCA
Sequence	bound/input enrichment [ratio]
GGAGAUAUUCCAGAUCUUUCACAGGCCCCCAGCAGUCUUCUUGAUGCUUUAGAACAACAUUUAGCUUCCUUGGAAGGAAAGAAAAUCAAAGAUUCCACAGCUGCAAGCAGGGCUACAACA	0.268
GCUUAGUUUUAAAGACAACUUUGAAAUAAACAAUGAAAUAAAAGAUGUCACUAAAAUCUUUGAGGCUCCUGAACACAUUUUGCUGACAUAGUUUUGGGGCUUGAGGAGACCGCAUGUUGU	0.727
AAAUAACAUUGGAAAAUUGGGAGAAGUCUCCUUGGUUUGGAAAAAAAGGACUCUUCAACCUAGCUCACUUUCUUAUCCGGACUGGGAUAUUAAAUAUACGACACAUCCAGGAGUUUAUUG	0.299
AAACUUCACUCAUCAUUUGAAUACAGUAUUUACAGAGGAUGUUUGAGUUGAGAGCUUUUUUAGGUUUGAGGGGCUUGAUUUUUUUGUAAAUAAAAUUAUGCUUUGUGGCUAUCCAUCAAC	0.248
AUUAAUGCUCUAAUGCAUGCUUUGAUUGAAUUACGGACAAAGGACCCCAACAUAAAAAGUUUAGUUGUUUCUCAGUUUACCACAUUCUUGUCUUUAAUAGAAACACCUCUUAAAGCCUCA	0.987
UUCCACUUUUUUUUCCUUCAUGGAGACUGUUUGUUUGGCUUUCUUCCAUUGUUGUUUUUGUAGCAUUUAUUUCAGAAAUGUGUAUUUCCAUAAUCCAGAGGUUGUAAAACCACUAGUGUU	1.28
UAAUAAUGGAAUUGCUUUUUCUUUUGCCUUGUGAUUUUUUUUUGAGGUGAAAUUUAAUUUGUGUAUGUGUGUGUGUGUAGUGUUCUGCCCAUCUGAGUGUCUACUUGUAUCACAUUCCAU	0.282
GCUGCCCAGAAGGCAAAGCCAGUUGCUACUGCUCCUAUUCCUGGUACUCCAUGGUGUGUCGUUUGGACUGGUGAUGAGCGGGUCUUCUUUUAUAAUCCCACCACUCGUCUUUCUAUGUGG	0.107
UCUGAGAAAAGAAACUACCAGGUGACAAACAGCAUGUUUGGUGCUUCAAGAAAGAAGUUUGUAGAGGGGGUCGACAGUGACUACCAUGACGAAAACAUGUACUACAGCCAGUCUUCUAUG	0.119
AUGGACUUACCAUUAAAUAUGAUACCAGCACAGAUUUUCCAGGAAAAGCUGCAGUGCUUUUUAGGUCAGCCAGUCUCUUUGACAAAAAAAAAUGAAAAGGGCUCAAAAUAUAAGCAAUUU	0.796
GCAAAUCUCUAAGUUUUUUGGUUUUUUUUUAUUUUUAAUUUUUAUUUUUGCUUGGGCUUGCUUAGUUUGGGAGGGGAUGGUGCUCCGAGAUCUCUGGAAACAGGAGGCCCCUGUCAGCCA	17.9

Set 4 — method: RNA Bind-n-Seq; molecule type: RNA; medium: in vitro; concentration: 1 µM; notes: whole 134-nt RNA, ends assumed; together with: 150 mM KCl; reference: input library; direction: higher = stronger binding
Target: Ras GTPase-activating protein-binding protein 1, C-terminal RGG region (G3BP1, Homo sapiens, UniProt Q13283)
Chain of UniProt Q13283 (whole entry, looked up): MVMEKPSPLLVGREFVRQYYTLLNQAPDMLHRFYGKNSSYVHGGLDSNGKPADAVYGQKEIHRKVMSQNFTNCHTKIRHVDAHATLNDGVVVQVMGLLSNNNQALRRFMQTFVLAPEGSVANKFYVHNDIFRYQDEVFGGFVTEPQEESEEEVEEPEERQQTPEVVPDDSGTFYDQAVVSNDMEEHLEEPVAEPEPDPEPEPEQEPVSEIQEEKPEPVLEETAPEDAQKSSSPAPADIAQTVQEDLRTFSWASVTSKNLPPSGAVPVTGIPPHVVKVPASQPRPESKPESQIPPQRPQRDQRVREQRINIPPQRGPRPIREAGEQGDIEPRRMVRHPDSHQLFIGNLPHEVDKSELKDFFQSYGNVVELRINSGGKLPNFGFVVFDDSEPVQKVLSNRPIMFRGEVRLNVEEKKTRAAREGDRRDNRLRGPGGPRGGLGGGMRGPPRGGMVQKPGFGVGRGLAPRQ
All sequences stand within: GGGAGUUCUACAGUCCGACGAUC … UGGAAUUCUCGGGUGUCAAGG
Sequence	log2 enrichment
UUGGAUGAAGAUGGCAAAGUCCUGACCCCGGAGGAGCUGCUCUACCGGGUAAGGGGGCCUCCUCUGCCAGACCCUAGAGACCUCUCUGGG	-1.63
GCAGGAAGUAAAAACAAAAGGAAAUGCUUCGGAUAGUGGCAGGGGUGGGGGUUGCUAAGGAAAGGGUGGGAUGGGAGUGGGUAAAGAGUU	1.65
GUCCUGUGCUACACAUCGUAUGUACCGAAUCGGGGUUUUUGGGGAGGGGAAAAAGGGGAAAGUAUUAUGUUACGCCGUUCGGAUCUGCAC	1.69
UCCUCAAGUCCUGUGCUACACAUCGUAUGUACCGAAUCGGAGGGAGGGAGGAAAGUAUUAUGUUACGCCGUUCGGAUCUGCACUUCCAGC	-1.01
UUGUGAUAGCCAAGUGGGACUACACCGCCCAGCAGGACCAGGAGCUGGACAUCAAGAAGAACGAGCGGCUGUGGUUGCUGGACGACUCCA	-1.72
GAUCUCCGGGCUCAGUUGCAGAUUCUGGCCAACAUGGACAGCCAGCUAAAAGAGCUACAGAGUCAGCAUACCCAUUGUGCCCAGGACCUG	-1.6
AGUCCUGUGCUACACAUCGUAUGUACCGAAUCAAACCCCCAAAUUUAAACCCCCAAAAAAGUAUUAUGUUACGCCGUUCGGAUCUGCACU	-1.1
UGGGAGGUGGAUUUUGCUUAUUUUUUUAGCUCAUUUCCAGGGGUGGGAAUUUUUUUUUAAUAUGUGUCAUGAAUAAAGUUGUUUUUGAAA	3.36
AAGUCCUGUGCUACACAUCGUAUGUACCGAAUCGGUGGAAAAAAAGGAAAAAAAGGAAAGUAUUAUGUUACGCCGUUCGGAUCUGCACUU	-1.86
AAGUCCUGUGCUACACAUCGUAUGUACCGAAUCGGGGAAAAGGAAAAGGAAAAGGGGAAAGUAUUAUGUUACGCCGUUCGGAUCUGCACU	-1.44
AGUCCUGUGCUACACAUCGUAUGUACCGAAUCAAACCCAAACCCAAACCCCCCCAAAAAAGUAUUAUGUUACGCCGUUCGGAUCUGCACU	-1.19
CCUGUGCUACACAUCGUAUGUACCGAAUCGGGGUUUGGGGAAAAAAAGGGGAAAAAGGGGAAAGUAUUAUGUUACGCCGUUCGGAUCUGC	0.631
CUGUGCUACACAUCGUAUGUACCGAAUCGGAAAAAAAGGAAAAAAAGGGGAAAAAAAGGGGAAAGUAUUAUGUUACGCCGUUCGGAUCUG	-1.44
UGGGAGGUGCAUUUUGUUUAUUUUUUUAGCUCAUUUCCAGGGGUGGGAAUUUUUUUUUAAUAUGUGUCAUGAAUAAAGUUGUUUUUGAAA	2.64

Set 5 — method: RNAcompete; molecule type: RNA; medium: in vitro; concentration: 20 nM; notes: 7-mer, probes averaged, single round; reference: mean of 7-mers; direction: higher = stronger binding
Target: PABPC1L2, full length, GST fusion (mouse, UniProt A0ABA7IW68)
Construct (chain): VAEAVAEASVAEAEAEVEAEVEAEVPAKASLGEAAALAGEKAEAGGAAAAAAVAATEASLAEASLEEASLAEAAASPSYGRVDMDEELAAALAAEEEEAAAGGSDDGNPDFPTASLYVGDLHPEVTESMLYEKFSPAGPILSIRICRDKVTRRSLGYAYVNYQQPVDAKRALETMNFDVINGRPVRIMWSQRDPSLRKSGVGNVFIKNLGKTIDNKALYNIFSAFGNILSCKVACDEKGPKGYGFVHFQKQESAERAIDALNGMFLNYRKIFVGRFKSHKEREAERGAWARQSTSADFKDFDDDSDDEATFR
Sequence	7-mer Z-score
UAGGAGA	0.109
CAACAGA	0.213
CAAUCUA	-0.0482
UAGAGUU	-0.188
UUUUUUG	-0.11
GGAUGGC	0.329
GCUCCCG	-0.255
GGAUGUG	0.075
UCUGGGC	0.0623
CAUUCUC	-0.438
UUGGUGG	-0.132
AAUCAGA	0.407
GUUUUGC	-0.469
CGGGUCU	-0.0554
GACAAUC	-0.0464
UAUAACG	-0.117
UCUUUGC	-0.49
GGGGUUA	0.218
CCAUUCC	-0.291
GGUCCCC	-0.429
AUGAGCG	0.0134
CUACUUA	-0.141

Set 6 — method: protein-binding microarray; molecule type: double-stranded DNA, one strand shown; medium: in vitro; concentration: 940 nM top; notes: 60-bp whole probe; together with: salmon DNA 0.4 mg/ml; reference: random background probes; direction: higher = stronger binding; all sequences stand within: GCCTAGCAC … GTCTTGATTCGCTTGACGCTGCTG
Target: Interferon regulatory factor 5, full length, phosphomimetic (IRF5, Homo sapiens, UniProt Q13568-2, residues 1-514, S451D/S453D/S456D/S462D)
Sequence	fitted relative affinity [z-score]
TTAGGACTGGGTCGCGGTTAGTGCTAG	-0.216
GACGATATTGGGTATCGAGACGTGCTA	1.05
TCAGAACTGGGGTTTCGATTAGTGCTA	5.15
TTAGGTCTTGGTCTCGGTTAGTGCTAG	2.97
GACGGTCTCCTTTTCCTGATGTGCTAG	0.734
TAAGATTTCAGTATCGATTAGTGCTAG	5.98
GACGGACTGCTACTGCTTACGTGCTAG	-0.271
TCAAATATATATATTGTACTGTGCTAG	0.0541
GACGGTTTTGACTTTCGGGACGTGCTA	1.62
AGTCTCTGCAGGGAGAGAGCGTGCTAG	0.969
TGAGGTTTTCTAATGTTTTTGTGCTAG	0.644
TCTTCTGGTGTGTCTGAAGAGTGCTAG	-0.0409
GACGGTTTCGGTATCTGGACGTGCTAG	12
GACGGACTGAACTATCGGGACGTGCTA	-0.652
TTAGGAGTGGGTATCGGTTAGTGCTAG	4.04
GAGGGTCTCCTTTTCCTGACGTGCTAG	0.315
CTAGGTATCGACTTTCGGTTAGTGCTA	5.22
TTAGGTATCCACACTGGGTTAGTGCTA	-0.0221
GACCGTCTCGGTCTCGGGACGTGCTAG	3.52
GTGGGGGGTGTGAGTGGGTGGTGCTAG	3.45
TTAGATCTCAGCCTGGATTAGTGCTAG	-0.229

Excerpt of the above (set 6):
Sequence	fitted relative affinity [z-score]
GACGGTCTCCTTTTCCTGATGTGCTAG	0.734
TAAGATTTCAGTATCGATTAGTGCTAG	5.98
GACGGACTGCTACTGCTTACGTGCTAG	-0.271
TCAAATATATATATTGTACTGTGCTAG	0.0541
GACGGTTTTGACTTTCGGGACGTGCTA	1.62
AGTCTCTGCAGGGAGAGAGCGTGCTAG	0.969
TGAGGTTTTCTAATGTTTTTGTGCTAG	0.644
TCTTCTGGTGTGTCTGAAGAGTGCTAG	-0.0409
GACGGTTTCGGTATCTGGACGTGCTAG	12
GACGGACTGAACTATCGGGACGTGCTA	-0.652
TTAGGAGTGGGTATCGGTTAGTGCTAG	4.04
GAGGGTCTCCTTTTCCTGACGTGCTAG	0.315
CTAGGTATCGACTTTCGGTTAGTGCTA	5.22
TTAGGTATCCACACTGGGTTAGTGCTA	-0.0221
